Experimental data pooled from the literature.
Numbered parts are unrelated; each lists some results of a single study. Positions count from the first letter of the parent shown.

Set 1 — target: CCND1, cyclin fold, Cln2 fusion (human); method: yeast growth competition, sequencing; matrix: yeast; notes: weak parent motif; baseline: not given; reading: higher = stronger binding; quantity: normalised enrichment score
Starting sequence: E2F1 docking peptide (human); PPVKRRLDLETDH; partner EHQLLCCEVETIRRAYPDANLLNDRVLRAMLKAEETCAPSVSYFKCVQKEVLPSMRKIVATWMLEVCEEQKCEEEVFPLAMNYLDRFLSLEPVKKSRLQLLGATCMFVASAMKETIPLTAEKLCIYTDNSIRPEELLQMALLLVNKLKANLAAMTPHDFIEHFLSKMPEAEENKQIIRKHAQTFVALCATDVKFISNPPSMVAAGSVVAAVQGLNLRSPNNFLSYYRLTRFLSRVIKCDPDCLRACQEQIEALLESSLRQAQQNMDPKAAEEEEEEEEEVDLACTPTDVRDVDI
P1V: 0.311
K4F: 0.47
R6F: 0.0339
V3E: 0.242
T11K: 0.215
V3M: 0.264
V3T: 0.217
D8T: 1.06
T11E: 0.31
R5S: -0.492
K4M: 1.1
V3K: 0.664
P1F: 0.922

Set 2 — method: universal PBM; molecule type: double-stranded DNA, one strand shown; matrix: in vitro; concentration: not given; reading: higher = stronger binding; quantity: E-score
Target: Sal-like protein 4, full length isoform B (SALL4, Homo sapiens, UniProt Q9UJQ4-2, residues 1-616)
Notes: 8-mer, flanks averaged, mean of replicates
GAATCTAA: 0.0273
CGAAGTTA: 0.0612
CACGTCTG: 0.105
CGACTCTA: -0.172
GCTTTCCA: -0.04
AACGGGCC: -0.208
GATTAAAC: 0.111
AAATCCGC: -0.225
GGGTGGAA: 0.0473
GCCGTATA: 0.261
CATTAGTC: 0.015
GGTAAGTA: 0.104
CCGCATAC: -0.0746

Set 3 — method: RNA Bind-n-Seq; molecule type: RNA; matrix: in vitro; concentration: 365 nM; baseline: no-protein control; reading: higher = stronger binding; quantity: RBNS enrichment (R)
Target: RNA binding protein fox-1 homolog 2, RRM domain, GST-SBP tag (RBFOX2, Homo sapiens, UniProt O43251-10, residues 100-194)
Notes: natural RNA segment, single round, ends assumed
Shared flanks, not repeated: GGGAGUUCUACAGUCCGACGAUC … UGGAAUUCUCGGGUGCCAA
Residues (chain): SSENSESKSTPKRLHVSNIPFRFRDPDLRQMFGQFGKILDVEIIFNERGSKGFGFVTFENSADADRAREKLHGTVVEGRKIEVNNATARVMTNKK
UUUAGGGGGUUUGUUUGUUGGGUUGUUUUUUGUUUUUUGGUUUUUUUUAAUGACAAUGAAGUGACACUUUGACAUUUCCUACCUUUUGAGGACUUGAUCCUUCUCCAGGA: 1.69
UUUUUAAAAAUCCCACGUGUGAAAGUUUACUGGCUUUAUUAGCAAGUUCCUUUUUACUUCAAGCUACUUUUUAUAAAAAAGAACAUUUUUCCAGUGUGGUUUUUAACAGA: 0.557
AAUUCUUAGCAUAAUGACGGCCUUGGAUUGUCUGACCUCAGUAGCUAUUAAAUAACAUCGAGUAACAUCUGCAUCAGGCCCUCAGAAUAUACAGUUGAGUUGGGAGUAAA: 5.42
AAGAAAAGGGACCUAGCUUAGCCAUGGCCCUGGAGAUGAAGUUACUGAGGCUGAGGGUAGAUGGGUUCAGUUCAGUGUCUCCUGCCCAGACUGGACAUCUUGGUCUUUUU: 0.552
UUUUCCCCCUUAGCACUUGUAUGAGUGAGGAGAAAGUUAGGUAAAGAUUGAAACUAUAAAUUACAGUGCAGUAAACUGUGCUAGGGAAGGAAUCAGUUACUAUUUAAGUU: 0.679
CUUUAACUGAAUUUUCAAAUGAAAUGAACUAUGCUUAUUGCUGGCACAUUGAUCCCAUUUCUGGAACAUUUUUCCUAUUUCCAGAGUUACAUAUGUUCUUUUGUCAUUAC: 0.55
CAUCAGCUCUGCCAAGCUGAGCCUGGCCAAGCUAGGUGGACAGACCCUUGCAGUGAUGUCCGUUUGUCCAGAUUCUGCCAGUCAUCACUGGACACGUCUCCUCGCAGCUG: 0.343
AGUAUCGUGCAUUAAAUGGGCAGUGUUAAUGUAGAACCAGGGUUCUACCACAUGCAAGUCUGUGUCCACAGAGCCGUUCUUGAACUCCGUAUCAGUACAGCUUUCACCUG: 0.552

Set 4 — method: aptamer microarray, sandwich; molecule type: DNA with 2'F-ANA; matrix: in vitro; concentration: 200 nM; with: Cy3 exosite-II aptamer, 400 nM; reading: higher = stronger binding; quantity: mean fluorescence intensity; strand: GGTTGGTGTGGTTGG
Target: Prothrombin, mature alpha-thrombin (F2, Homo sapiens, UniProt P00734)
Notes: whole 15-mer aptamer, many near background
2'F-ANA at 1 2 7 8 11 12 14: 68.3 a.u.
2'F-ANA at 2 3 4 6 7 13 15: 411 a.u.
2'F-ANA at 1 3 5 7 8 10 11: 61.9 a.u.
2'F-ANA at 3 5 6 7 10 13 15: 53.6 a.u.
2'F-ANA at 2 5 7 8 9 12 13: 240 a.u.
2'F-ANA at 1 6 7 9 10 12 13: 66.3 a.u.
2'F-ANA at 1 3 4 6 7 8 9 13 15: 198 a.u.
2'F-ANA at 1 2 5 8 10 11 12 15: 53.1 a.u.
2'F-ANA at 1 2 3 4 5 6 8 10 11: 69 a.u.
2'F-ANA at 5 8 10 11 13 14 15: 47 a.u.
2'F-ANA at 3 4 5 7 8 10 11 12: 63.8 a.u.
2'F-ANA at 1 4 5 8 9 11 12 13 15: 80.8 a.u.
2'F-ANA at 2 4 6 7 9 11 14 15: 74.3 a.u.
2'F-ANA at 2 3 5 7 9 13 14: 65.7 a.u.
2'F-ANA at 2 4 5 7 10 11 14: 50 a.u.
2'F-ANA at 2 3 4 5 7 9 10 11 12 13 14: 55.6 a.u.

Set 5 — method: protein binding microarray; molecule type: double-stranded DNA, one strand shown; matrix: in vitro; concentration: not given; baseline: not given; reading: higher = stronger binding; quantity: E-score
Target: Histone acetyltransferase KAT6A, both winged helices, GST fusion (KAT6A, Homo sapiens, UniProt Q92794, residues 1-181)
Notes: 8-mer, flanks averaged, mean of 2 arrays, mostly near background
Residues (chain): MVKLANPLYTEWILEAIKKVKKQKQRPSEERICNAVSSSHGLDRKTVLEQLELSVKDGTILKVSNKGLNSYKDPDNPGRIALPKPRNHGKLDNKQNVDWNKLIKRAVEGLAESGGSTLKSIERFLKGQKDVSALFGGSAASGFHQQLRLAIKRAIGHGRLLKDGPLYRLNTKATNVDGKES
GATCAAGC: 0.0624
AAGTAATA: -0.04
ACCAGCCC: -0.1
CTGCGACA: 0.0977
GACACAAA: -0.0113
ACATATAT: 0.0156
TCGCATAA: 0.127
CGGGAAGA: 0.275
GAGCCGGA: 0.0874
CATAATGC: 0.0319
CTTGTAGC: -0.0389
CCAAGGGA: -0.236
AGGAGGAG: -0.0926
AAAGATGT: -0.116
CAAAACCC: -0.0403
ACGATTTG: -0.0906

Repeated from above (set 5):
ACGATTTG: -0.0906
GATCAAGC: 0.0624
AGGAGGAG: -0.0926
CCAAGGGA: -0.236
GACACAAA: -0.0113
AAGTAATA: -0.04
CGGGAAGA: 0.275
